Assay results pooled from the literature.
Numbered parts are unrelated; each lists some results of a single study. Positions count from the first letter of the parent shown.

Sample 1 — technique: competition protein-binding microarray; form: double-stranded DNA, one strand shown; matrix: in vitro; tested at: 2 µM; with: Pho4 competitor, 0.05 µM; reading: higher = stronger binding
Target: Centromere-binding protein 1, full length, His-tagged (CBF1, Saccharomyces cerevisiae, UniProt P17106, residues 1-351)
Sequence of UniProt P17106 (whole entry, looked up): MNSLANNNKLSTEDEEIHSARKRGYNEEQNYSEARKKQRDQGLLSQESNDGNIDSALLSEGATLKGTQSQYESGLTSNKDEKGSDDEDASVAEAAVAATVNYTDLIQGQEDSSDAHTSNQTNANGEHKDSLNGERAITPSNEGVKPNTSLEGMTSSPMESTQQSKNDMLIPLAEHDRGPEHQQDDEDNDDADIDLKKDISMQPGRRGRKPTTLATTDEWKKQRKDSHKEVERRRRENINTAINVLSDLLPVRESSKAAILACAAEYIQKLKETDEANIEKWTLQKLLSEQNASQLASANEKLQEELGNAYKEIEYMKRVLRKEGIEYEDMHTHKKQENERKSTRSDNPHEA
Notes: whole 60-bp probe, lowest competitor level
The fluorescence intensity of `AAATTACTAAGTTTTCACGTGCGGTACCCCGTATGAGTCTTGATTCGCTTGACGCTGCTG` is reported as 784 a.u.
The fluorescence intensity of `CGGCCCTTCTCACCCCCCGTGTTTCGCAAAGAACAAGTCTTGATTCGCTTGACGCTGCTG` is reported as 130 a.u.
With `CTTCTGTAAATTTGTCGCGTGGGTGGACGCGCCCCGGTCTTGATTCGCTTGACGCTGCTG` the fluorescence intensity was 97 a.u.
`TCATGTTAATTGTAACGGCTATATCTACTGGGTAGAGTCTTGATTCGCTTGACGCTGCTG` has a fluorescence intensity of 101 a.u.
`AAAGCGGTAATTTGGGTTGTGGGTGCAGATATCTATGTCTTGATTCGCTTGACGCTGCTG` gave a fluorescence intensity of 76.6 a.u.
With `AAAGGCCATCCATACTACGTGGGTACTCAATACCATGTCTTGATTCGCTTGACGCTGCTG` the fluorescence intensity was 62.4 a.u.
`AAAGCCGTTCTTCGTCACGTGACTCGAAGTTGTAGCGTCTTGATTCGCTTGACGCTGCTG` has a fluorescence intensity of 30700 a.u.
With `GGGTTAAAACTTCACCACGTTTGTAGCGGAGCAATGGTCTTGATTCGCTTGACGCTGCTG` the fluorescence intensity was 97.7 a.u.
The fluorescence intensity of `CGTCCTAGTGATTTTCACGTGACTTCCATGAGGAAGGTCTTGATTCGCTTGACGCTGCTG` is reported as 5660 a.u.
`CTTCTGTAAATTTGGGGTGTGGGTGGACGCGCCCCGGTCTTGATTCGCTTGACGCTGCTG` gave a fluorescence intensity of 78.4 a.u.
With `TGCGCAACAACTTGTTTAGTGGGTGTATGTCTAGAAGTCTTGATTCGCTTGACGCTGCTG` the fluorescence intensity was 76.2 a.u.
The fluorescence intensity of `AACCAGAGCCCAATAAACGTGGTCGTTGTCGAGTAGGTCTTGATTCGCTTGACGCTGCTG` is reported as 96.6 a.u.
The fluorescence intensity of `TACTCAGAATATGAAAACGTGTCGGACGGGGATGACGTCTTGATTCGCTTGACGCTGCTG` is reported as 177 a.u.
`TACGATACTACCATACATGTGATATGTCCCTTTCTAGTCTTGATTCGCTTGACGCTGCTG` has a fluorescence intensity of 502 a.u.
`AGCGACCTTCTTGGCACCGTGCTTTTTGGCGACCTTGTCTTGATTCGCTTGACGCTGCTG` gave a fluorescence intensity of 70 a.u.
For `TGCTGGCATTCTTATCTCGTGCTTTTATTAGTGGGCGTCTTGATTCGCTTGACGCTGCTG`, the fluorescence intensity was 319 a.u.
With `TAATTAAGGCAATGCCAGGTGATAAAGTTAAGGTTCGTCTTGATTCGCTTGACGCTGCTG` the fluorescence intensity was 101 a.u.

Sample 2 — technique: protein binding microarray; form: double-stranded DNA, one strand shown; matrix: in vitro; tested at: not given; reference: not given; reading: higher = stronger binding
Target: Histone acetyltransferase KAT6A, winged helix 1, GST fusion (KAT6A, Homo sapiens, UniProt Q92794, residues 1-85)
Notes: 8-mer, flanks averaged, mean of 2 arrays, mostly near background
Construct (chain): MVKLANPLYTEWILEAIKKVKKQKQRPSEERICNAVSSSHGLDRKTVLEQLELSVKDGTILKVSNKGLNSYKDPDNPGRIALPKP
The E-score of `ATAACTAA` is reported as -0.16.
For `CGAGCTGC`, the E-score was 0.0585.
The E-score of `CCCCTTTA` is reported as -0.142.
With `AGAAAGGC` the E-score was 0.0986.
For `CGTAGATA`, the E-score was 0.0824.
The E-score of `AAGACAAA` is reported as -0.0907.
`AGGGCTCA` gave an E-score of -0.145.
`GCGATCCA` has an E-score of 0.0313.
With `AGCTCAGA` the E-score was -0.223.
The E-score of `GAAATTCC` is reported as -0.036.
`GGGAATAA` gave an E-score of 0.0637.
`CGCTCGAA` has an E-score of -0.0138.
The E-score of `AGCCTCCA` is reported as -0.0816.
`CATGGTTC` gave an E-score of 0.0166.
For `CTTTATTC`, the E-score was -0.245.
`GCTGCGCA` has an E-score of 0.248.

Sample 3 — target: UBE2T UBC core domain (UniProt Q9NPD8); technique: yeast two-hybrid; matrix: yeast; notes: mostly zero background; reference: not given; reading: higher = stronger interaction
B1: TRIM41 RING domain (UniProt Q8WV44); chain PVQTLQEEAVCAICLDYFTDPVSIGCGHNFCRVCVTQLWGGEDEEDRDELDREEEEEDGEEE
B2: MKRN3 RING domain (UniProt Q13064); chain FAVQRGMDKVCGICMEVVYEKANPNDRRFGILSNCNHSFCIRCIRRWRSARQFENRIVKSCPQCRVTSELVIPSE
B3: NFX1 RING domain (UniProt Q12986); chain IEQLTTEKYECMVCCELVRVTAPVWSCQSCYHVFHLNCIKKWARSPASQADGQSGWRCPACQNVSAHVPNTY
B4: MID2 RING domain (UniProt Q9UJV3); chain KMETLESELTCPICLELFEDPLLLPCAHSLCFSCAHRILVSSCSSGESIEPITAFQCPTCRYVISLNHRGL
B5: RNF186 RING domain (UniProt Q9NXI6); chain HSGSTECDLECLVCREPYSCPRLPKLLACQHAFCAICLKLLLCVQDNTWSITCPLCRKVTAVPGGLI
B6: CNOT4 RING domain (UniProt O95628); chain MSRSPDAKEDPVECPLCMEPLEIDDINFFPCTCGYQICRFCWHRIRTDENGLCPACRKPYPED
Construct (chain): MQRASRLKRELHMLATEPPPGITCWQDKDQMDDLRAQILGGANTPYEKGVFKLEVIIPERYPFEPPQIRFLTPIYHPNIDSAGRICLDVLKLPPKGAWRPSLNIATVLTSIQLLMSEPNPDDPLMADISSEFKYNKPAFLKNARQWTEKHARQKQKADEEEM
`B1 (TRIM41 RING domain)`: “lacZ reporter activity” 0.
For `EIKEYKARLTCPCCNTRKKDAVLTKCFHVFCFECVRGRYEARQRKCPKCNAAFGAHDFHR (RNF40 RING domain (UniProt O75150))`, “lacZ reporter activity” read 0.
`B2 (MKRN3 RING domain)` — result for “lacZ reporter activity”: 0.
For `B3 (NFX1 RING domain)`, “lacZ reporter activity” read 0.
`B4 (MID2 RING domain)` — result for “lacZ reporter activity”: 0.
For `B5 (RNF186 RING domain)`, “lacZ reporter activity” read 0.
For `ASPKIFQKTKCSICNSALELPSVHFLCGHSFHQHCFESYSESDADCPTCLPENRKVMDMI (VPS11 RING domain (UniProt Q9H270))`, “lacZ reporter activity” read 0.
`FAEQPSVKLCCQLCCSVFKDPVITTCGHTFCRRCALKSEKCPVDNVKLTVVVNNI (TRAF7 RING domain (UniProt Q6Q0C0))` — result for “lacZ reporter activity”: 0.
For `B6 (CNOT4 RING domain)`, “lacZ reporter activity” read 0.

Sample 4 — target: CCNA1, cyclin fold, Cln2 fusion (human); technique: yeast growth competition, sequencing; matrix: yeast; notes: weak parent motif; reference: not given; reading: higher = stronger binding
Starting sequence: RB1 docking peptide (human); PKPLKKLRFDIEG
`I11A` — result for “normalised enrichment score”: 0.408.
`P3K`: “normalised enrichment score” 0.659.
`P1Y`: “normalised enrichment score” 0.0266.
`L7V`: “normalised enrichment score” 0.248.
Under “normalised enrichment score”, `K2R` is recorded as 0.443.
`L4S` — result for “normalised enrichment score”: 0.406.
`L7D`: “normalised enrichment score” -0.119.
`F9I`: “normalised enrichment score” 0.146.
`P1C`: “normalised enrichment score” 0.958.
Under “normalised enrichment score”, `L7K` is recorded as 0.475.
`D10V` — result for “normalised enrichment score”: 0.282.
Under “normalised enrichment score”, `I11D` is recorded as 0.0769.
`K5F` — result for “normalised enrichment score”: -0.0129.
`K5T`: “normalised enrichment score” 0.299.
`L4N`: “normalised enrichment score” 0.171.
`K5P` — result for “normalised enrichment score”: 0.278.
Under “normalised enrichment score”, `E12M` is recorded as 0.27.
`P3W`: “normalised enrichment score” 0.454.
`R8M` — result for “normalised enrichment score”: 0.245.
For `K2S`, “normalised enrichment score” read 0.281.
For `K2H`, “normalised enrichment score” read 0.16.
`P3A`: “normalised enrichment score” 0.436.
`K5E`: “normalised enrichment score” 0.454.
`R8P` — result for “normalised enrichment score”: 0.377.
Under “normalised enrichment score”, `P3H` is recorded as -0.0872.

For quick reference, copied from above (sample 4):
Under “normalised enrichment score”, `I11D` is recorded as 0.0769.
`K5F` — result for “normalised enrichment score”: -0.0129.
`K5T`: “normalised enrichment score” 0.299.
`L4N`: “normalised enrichment score” 0.171.
`K5P` — result for “normalised enrichment score”: 0.278.
Under “normalised enrichment score”, `E12M` is recorded as 0.27.
`P3W`: “normalised enrichment score” 0.454.
`R8M` — result for “normalised enrichment score”: 0.245.
For `K2S`, “normalised enrichment score” read 0.281.
For `K2H`, “normalised enrichment score” read 0.16.
`P3A`: “normalised enrichment score” 0.436.
